Measurements of several laboratories.
Each numbered part is a random draw from the data of one study; scales do not carry over between parts. Substitutions count along the parent as printed.
Sequence of UniProt O15294 (whole entry, looked up): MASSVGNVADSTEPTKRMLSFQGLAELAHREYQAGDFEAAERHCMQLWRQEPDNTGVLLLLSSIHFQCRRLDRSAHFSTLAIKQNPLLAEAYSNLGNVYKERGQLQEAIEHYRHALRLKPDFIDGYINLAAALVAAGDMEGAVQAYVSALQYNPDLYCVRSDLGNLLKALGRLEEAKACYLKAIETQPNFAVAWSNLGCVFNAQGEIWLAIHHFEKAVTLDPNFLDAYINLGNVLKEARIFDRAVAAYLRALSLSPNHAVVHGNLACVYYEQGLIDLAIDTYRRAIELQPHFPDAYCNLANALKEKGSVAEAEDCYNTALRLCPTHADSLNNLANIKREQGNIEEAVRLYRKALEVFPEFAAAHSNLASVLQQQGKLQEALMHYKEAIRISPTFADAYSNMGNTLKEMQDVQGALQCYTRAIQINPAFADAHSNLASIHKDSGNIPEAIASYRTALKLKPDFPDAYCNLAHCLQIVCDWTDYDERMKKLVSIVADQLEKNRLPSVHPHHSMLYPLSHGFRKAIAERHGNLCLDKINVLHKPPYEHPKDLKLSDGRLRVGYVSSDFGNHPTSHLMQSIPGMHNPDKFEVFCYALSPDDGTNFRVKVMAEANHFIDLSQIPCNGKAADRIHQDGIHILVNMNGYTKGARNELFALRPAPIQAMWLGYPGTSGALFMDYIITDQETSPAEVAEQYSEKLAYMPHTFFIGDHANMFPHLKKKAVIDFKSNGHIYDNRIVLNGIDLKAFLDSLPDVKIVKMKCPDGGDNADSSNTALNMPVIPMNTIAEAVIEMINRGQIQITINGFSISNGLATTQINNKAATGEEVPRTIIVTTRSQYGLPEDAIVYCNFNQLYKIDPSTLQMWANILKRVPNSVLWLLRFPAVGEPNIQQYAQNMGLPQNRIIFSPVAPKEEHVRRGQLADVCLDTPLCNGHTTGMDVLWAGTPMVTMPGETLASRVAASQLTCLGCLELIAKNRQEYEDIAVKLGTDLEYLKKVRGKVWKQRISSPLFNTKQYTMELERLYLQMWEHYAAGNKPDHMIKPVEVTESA

Study 1 — technique: aptamer microarray, sandwich; molecule type: DNA with 2'F-ANA; matrix: in vitro; tested at: 200 nM; together with: Cy3 exosite-II aptamer, 400 nM; direction: higher = stronger binding; oligonucleotide: GGTTGGTGTGGTTGG
Target: Prothrombin, mature alpha-thrombin (F2, Homo sapiens, UniProt P00734)
Notes: whole 15-mer aptamer, many near background
Modification | mean fluorescence intensity
2'F-ANA at 2 4 7 12 | 731 a.u.
2'F-ANA at 4 8 9 12 13 14 | 90.3 a.u.
2'F-ANA at 6 7 8 9 11 13 14 | 172 a.u.
2'F-ANA at 1 2 5 6 7 9 11 12 14 | 47.9 a.u.
2'F-ANA at 2 4 7 9 10 12 14 15 | 66.6 a.u.
2'F-ANA at 2 3 5 9 11 15 | 77.3 a.u.
2'F-ANA at 3 6 9 10 11 12 13 14 15 | 331 a.u.
2'F-ANA at 2 3 7 9 10 12 13 14 15 | 271 a.u.

Study 2 — technique: protein-binding microarray; molecule type: double-stranded DNA, one strand shown; matrix: in vitro; tested at: not given; direction: higher = stronger binding
Target: Microphthalmia-associated transcription factor, full length (MITF, Homo sapiens, UniProt O75030-10, residues 1-413)
Notes: k-mer, scored over probes, only values ≥0.25
Oligonucleotide | E-score
GTCACAA | 0.362
CCTACAC | 0.272
ACGTGTG | 0.388
AAGTCAT | 0.309
CGTGTTC | 0.254
CTTGTGA | 0.426
ACGAGAC | 0.255
ATCACAC | 0.317

Further values, each from its own experiment
P1: viral docking peptide; KGVKRKLFAEDSS; partner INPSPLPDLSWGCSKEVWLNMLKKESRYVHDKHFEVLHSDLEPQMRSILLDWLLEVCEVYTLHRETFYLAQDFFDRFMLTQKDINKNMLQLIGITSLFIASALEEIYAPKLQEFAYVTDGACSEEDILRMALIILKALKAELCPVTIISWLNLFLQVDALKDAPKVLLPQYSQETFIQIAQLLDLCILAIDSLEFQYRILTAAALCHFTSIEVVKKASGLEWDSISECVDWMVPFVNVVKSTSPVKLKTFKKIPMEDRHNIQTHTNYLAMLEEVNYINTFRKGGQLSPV
Substance | target | test | test system | conditions | how to read | measurement | result
HALHHGSDLHYVVRT | UDP-N-acetylglucosamine--peptide N-acetylglucosaminyltransferase 110 kDa subunit (OGT, Homo sapiens, UniProt O15294) | binding, phage display NGS | peptide |  | baseline: input library | minimum log2 enrichment ratio | 3.19
P1 V3Y | CCNE2, cyclin fold, Cln2 fusion (human) | yeast growth competition, sequencing | yeast | strong parent motif | baseline: not given, higher = stronger binding | normalised enrichment score | 5.2

For quick reference, copied from above (study 2):
Oligonucleotide | E-score
ACGTGTG | 0.388
AAGTCAT | 0.309
